# Experimental data gathered from unrelated publications.
# Protocols differ between the studies behind these lines. Several values in a cell are separate wells, animals, samples, runs or records. ± marks the error that the study gave.
# Target: Acetylcholinesterase (ACHE, Homo sapiens, UniProt P22303)
# UniProt P22303, sequence (whole entry, looked up): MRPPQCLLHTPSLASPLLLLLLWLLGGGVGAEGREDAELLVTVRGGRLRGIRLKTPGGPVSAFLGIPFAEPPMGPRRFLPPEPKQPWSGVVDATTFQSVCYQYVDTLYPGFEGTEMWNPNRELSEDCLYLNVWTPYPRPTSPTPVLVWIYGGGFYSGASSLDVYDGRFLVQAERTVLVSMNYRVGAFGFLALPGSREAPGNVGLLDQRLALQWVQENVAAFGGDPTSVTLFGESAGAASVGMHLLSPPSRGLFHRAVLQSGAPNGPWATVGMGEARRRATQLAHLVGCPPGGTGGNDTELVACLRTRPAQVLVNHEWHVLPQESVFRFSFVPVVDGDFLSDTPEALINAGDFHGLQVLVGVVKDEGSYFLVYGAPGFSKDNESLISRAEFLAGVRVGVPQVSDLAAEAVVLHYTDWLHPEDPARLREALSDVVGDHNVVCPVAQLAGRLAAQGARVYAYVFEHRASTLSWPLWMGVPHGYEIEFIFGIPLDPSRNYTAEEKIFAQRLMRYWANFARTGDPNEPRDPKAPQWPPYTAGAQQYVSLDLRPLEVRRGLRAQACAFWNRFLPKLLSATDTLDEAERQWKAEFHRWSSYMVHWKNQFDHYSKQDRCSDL
Structure (SMILES),assay,conditions,IC50
O=C(O)/C=C/c1cc(O)cc(O)c1,,,422 µM
O=C1N[C@H]2[C@H](O)[C@H](O)[C@@H](O)C[C@@H]2c2cc3c(c(O)c21)OCO3,"enzyme activity, inhibitor",,1590 µM
O=C1c2ccccc2NC(c2cc(Br)ccc2O)N1/N=C/c1cc(Br)ccc1O (centres unmarked),"enzyme activity, inhibitor, Ellman",,10.5 µM
COc1c(OC(=O)N(C)c2ccc(C)cc2)cc2oc3cc4c(c(O)c3c(=O)c2c1CC=C(C)C)C=CC(C)(C)O4,"enzyme activity, inhibitor",,> 100 µM
COC(=O)c1ccc(-n2nc(-c3ccccc3O)nc2-c2ccccc2O)cc1,,,6.24 ± 0.16 µM
CCOc1cccc(N(C)C(=O)Oc2cc3oc4cc5c(c(O)c4c(=O)c3c(CC=C(C)C)c2OC)C=CC(C)(C)O5)c1,"enzyme activity, inhibitor",,37.5 µM
CCCN1CCN(C(=NNc2ccc3c(C)cc(=O)oc3c2)C(C)=O)CC1,"enzyme activity, inhibitor, Ellman",,222 µM
COc1cccc(N(C)C(=O)Oc2cc3oc4cc5c(c(O)c4c(=O)c3c(CC=C(C)C)c2OC)C=CC(C)(C)O5)c1,"enzyme activity, inhibitor",,43.4 µM
CC(=O)C(=NNc1ccc2c(C)cc(=O)oc2c1)N1CCSCC1,"enzyme activity, inhibitor, Ellman",,81.5 µM
CC1(C)C=Cc2c(cc3oc(-c4ccc(O)cc4)cc(=O)c3c2O)O1,"enzyme activity, inhibitor, Ellman",,1340 µM
O=c1[nH]c2c(O)cccc2c2cc3c(c(O)c12)OCO3,"enzyme activity, inhibitor",,107 µM and 171 µM
O=C1c2c(O)cc(O)cc2OC2(c3ccc(O)cc3)Oc3cc(O)c4c(=O)c(O)c(-c5ccc(O)c(O)c5)oc4c3C12O (racemic),,,6.33 ± 0.45 µM
Cc1ccccc1C[n+]1cccc(CNC(=O)c2ccc(CN3C(=O)c4ccccc4C3=O)cc2)c1,"enzyme activity, inhibitor, Ellman",,2.37 µM
O=C1c2c(O)cc(O)cc2OC2(c3ccc(O)c(O)c3)Oc3cc(O)c4c(=O)c(O)c(-c5ccc(O)c(O)c5)oc4c3C12O (racemic),,,6.74 ± 0.04 µM
COc1ccc(N(C)C(=O)Oc2cc3oc4cc5c(c(O)c4c(=O)c3c(CC=C(C)C)c2OC)C=CC(C)(C)O5)cc1,"enzyme activity, inhibitor",,> 100 µM
CNCCc1ccc(O)cc1,"enzyme activity, inhibitor",no inhibition observed,464 ± 9.65 µM
COc1cc(C=O)ccc1OC(=O)CSc1nnc(Cn2cnc3c2c(=O)n(C)c(=O)n3C)o1,"enzyme activity, inhibitor, Ellman",,5.55 µM
Fc1ccc(N2CCN(Cc3nnc(-c4ccccc4)o3)CC2)cc1,"enzyme activity, inhibitor, Ellman",,2.19 µM
COc1cc(/C=N\N=C(\C)c2ccc(OCc3ccc(Br)cc3)cc2)ccc1O,"enzyme activity, inhibitor",,15.9 µM
O=C1c2c(O)cc(O)cc2OC2(c3ccc(O)c(O)c3)Oc3cc(O)c4c(=O)c(O)c(-c5ccc(O)cc5)oc4c3C12O (racemic),"enzyme activity, inhibitor, Ellman",,6.39 µM
COc1cc2c(cc1OC)C(=O)/C(=C\c1ccc(N3CCOCC3)cc1)C2,"enzyme activity, inhibitor, Ellman",,57.5 µM
O=C1C=C(OCCCCn2cc(CNc3ccc4nccnc4c3)nn2)C(=O)c2ccccc21,"enzyme activity, inhibitor, Ellman",,31.1 µM
O=C(Cc1ccccc1)C(F)(F)F,"enzyme activity, inhibitor, Ellman",,0.51 µM
O=C(NCc1ccc[n+](Cc2ccc(C(F)(F)F)cc2)c1)c1ccc(CN2C(=O)c3ccccc3C2=O)cc1,"enzyme activity, inhibitor, Ellman",,4.13 µM
O=C1c2c(O)cc(O)cc2O[C@@]2(c3ccc(O)cc3)Oc3cc4oc(-c5ccc(O)c(O)c5)c(O)c(=O)c4c(O)c3[C@@]12O,"enzyme activity, inhibitor, Ellman",,> 50 µM
COc1cc2c(cc1OC)C(=O)/C(=C\c1ccc(Br)cc1)C2,"enzyme activity, inhibitor, Ellman",,> 10 µM
CC(=O)C(=NNc1ccc2c(C)cc(=O)oc2c1)N1CCN(CCO)CC1,"enzyme activity, inhibitor, Ellman",,116 µM
COc1cc2c(cc1OC)C(=O)/C(=C\c1ccccc1)C2,"enzyme activity, inhibitor, Ellman",,> 10 µM
O=c1c(O)c(-c2ccc(O)cc2)oc2c(Cc3c(O)cc(O)c4c(=O)c(O)c(-c5ccc(O)c(O)c5)oc34)c(O)cc(O)c12,"enzyme activity, inhibitor, Ellman",,0.73 µM
COc1cc(Br)cc(/C=N/N2C(=O)c3ccccc3NC2c2cc(Br)cc(OC)c2O)c1O (centres unmarked),"enzyme activity, inhibitor, Ellman",,19.5 µM
Cc1cc(C)cc(-n2cc(CCS(=O)(=O)N3CCc4ccccc4C3)nn2)c1,"enzyme activity, inhibitor",,2.32 µM
COc1ccc(/C=C2/SC(Nc3nc(-c4ccc(OC)cc4)cs3)=NC2=O)cc1,"enzyme activity, inhibitor, Ellman",,0.109 µM
COc1cc(/C=C/C(=O)CC(=O)/C=C/c2ccc(OC(=O)CCc3c[nH]c4ccccc34)c(OC)c2)ccc1OC(=O)CCc1c[nH]c2ccccc12,"enzyme activity, inhibitor",,59.3 µM
COC(=O)CCC1NC(C(C)=O)=NN(c2ccc3c(C)cc(=O)oc3c2)C1=O (centres unmarked),"enzyme activity, inhibitor, Ellman",,129 µM
Cc1nc2ccc(NCc3cn(CCCOC4=CC(=O)c5ccccc5C4=O)nn3)cc2nc1C,"enzyme activity, inhibitor, Ellman",,5.4 µM

# Repeated from above:
Structure (SMILES),assay,conditions,IC50
CCOc1cccc(N(C)C(=O)Oc2cc3oc4cc5c(c(O)c4c(=O)c3c(CC=C(C)C)c2OC)C=CC(C)(C)O5)c1,"enzyme activity, inhibitor",,37.5 µM
COc1cc2c(cc1OC)C(=O)/C(=C\c1ccc(N3CCOCC3)cc1)C2,"enzyme activity, inhibitor, Ellman",,57.5 µM
CCCN1CCN(C(=NNc2ccc3c(C)cc(=O)oc3c2)C(C)=O)CC1,"enzyme activity, inhibitor, Ellman",,222 µM
O=C(NCc1ccc[n+](Cc2ccc(C(F)(F)F)cc2)c1)c1ccc(CN2C(=O)c3ccccc3C2=O)cc1,"enzyme activity, inhibitor, Ellman",,4.13 µM
CNCCc1ccc(O)cc1,"enzyme activity, inhibitor",no inhibition observed,464 ± 9.65 µM
